Measurements pooled from the literature.
Compare with care: the assays were run in different laboratories. ± gives the spread as reported.

C[C@H](Cn1cnc2c(N)ncnc21)OCP(=O)(O)O
inhibition (human alphaherpesvirus 2; virus production, plaque reduction; human monocytes/macrophages; 0.04 µg/mL, 6 days): 6%

N=C(N)c1ccc(-c2ccc(-c3cccs3)o2)c(F)c1
inhibition (Salmonella enterica; sodium azide mutagenicity; TA1535; 20 µM, 48 h, with: sodium azide 2 µg/plate after pre-exposure): 96%

CC(=O)C[C@@H](c1ccccc1)c1c(O)c2ccc(O)cc2oc1=O
Kss (UGT; item: 4-glucuronide; human liver microsomes; second binding site): 2850 µM

CCCCCc1cc(O)c2c(c1)OC(C)(C)[C@@H]1CCC(C)=C[C@@H]21
ED50 (drug discrimination; C57BL/6J mice, both sexes; trained vs vehicle): 1.76 to 2.14 mg/kg

ClCCN(CCCl)c1ccc(CCNc2ccnc3cc(Cl)ccc23)cc1
EC50 (Dengue virus type 2; viral replication, Rluc reporter replicon; BHK-21 DENV2 replicon cells; 24 h): 3.6 ± 0.83 µM

CNC(C)Cc1ccc2c(c1)OCO2 (racemic)
mood rating (visual analog scale, item: Sedated; human; oral, 1.5 mg/kg, mean over session, unit not given; relative to: pre-dose baseline): 5

CN[C@@](C)(C[18F])C(=O)O
tissue uptake (SCID mouse MDA-MB-468 xenograft, kidney; 120 min, post injection): 3.6 ± 0.4 %ID/g

c1ccc(CN2CCC3(CCCc4ccccc43)CC2)cc1
IC50 (HEK293 expressing MOR; cAMP overshoot, inhibitor, HTRF cAMP; with: morphine then naloxone): 14.6 µM

N=C(N)c1ccc(-c2ccc(-c3ccco3)o2)cc1F
mutant frequency (Salmonella enterica; TA1535; 10 µM, 48 h, with: sodium azide after pre-exposure; relative to: sodium azide alone): 92%

O=C(/C=C/c1ccc(O)cc1)c1ccc(O)cc1O
IC50 (influenza virus; viral replication; MDCK; 72 h): > 10 µM

N#Cc1ccc(-c2ccc(-c3cccs3)s2)cc1F
inhibition (Salmonella enterica; sodium azide mutagenicity; TA1535; 10 µM, 48 h, with: sodium azide 2 µg/plate after pre-exposure): 104 ± 14.7%

O=C(O)c1nccnc1NCc1ccccc1
IC50 (Mycobacterium tuberculosis variant bovis BCG; microbial growth; ATCC35734 BCG; 5 days): 200 µM

CP(=O)(O)CCC(N)C(=O)O (centres unmarked)
herbicidal activity (Echinochloa crus-galli; 60 g/ha, 13 days, post-emergence spray; relative to: untreated (0%), complete kill (100%)): 80%

Nc1ccn(C[C@@H](CO)OCP(=O)(O)O)c(=O)n1
EC50 (herpes simplex virus 2; cytopathic effect; HEL, clinical isolate NA): 0.32 ± 0.26 µg/mL

N#Cc1ccc(-c2ccc(-c3ccco3)o2)c(F)c1
inhibition (Salmonella enterica; sodium azide mutagenicity; TA1535; 20 µM, 48 h, with: sodium azide 2 µg/plate after pre-exposure): 103%

O=Cc1cn(Cc2ccccc2)c2ccc([N+](=O)[O-])cc12
IC50 (Leishmania donovani; parasite growth, resazurin; THP-1; 72 h, intracellular, amastigote): 3.57 µM

N#Cc1ccc(-c2ccc(-c3ccco3)o2)cc1F
inhibition (Salmonella enterica; sodium azide mutagenicity; TA1535; 20 µM, 48 h, with: sodium azide 2 µg/plate after pre-exposure): 82 ± 8.49%

CC(C)c1ccc2c(c1)CC[C@H]1[C@](C)(CN)CCC[C@]21C
IC50 (MEL-JUSO; cell growth or viability, MTS; 24 h): 7.05 µM

N=C(N)c1ccc(-c2ccc(-c3cccs3)o2)cc1F
mutant frequency (Salmonella enterica; TA1535; 20 µM, 48 h, with: sodium azide co-exposure; relative to: sodium azide alone): 15%

O=C(O)c1nccnc1-c1ccccc1
IC50 (Mycobacterium tuberculosis variant bovis BCG; microbial growth; ATCC35734 BCG; 5 days): 1500 µM

Repeated from above:
ClCCN(CCCl)c1ccc(CCNc2ccnc3cc(Cl)ccc23)cc1
EC50 (Dengue virus type 2; viral replication, Rluc reporter replicon; BHK-21 DENV2 replicon cells; 24 h): 3.6 ± 0.83 µM
